Measured values collected from several papers.
Each numbered part is a random draw from the data of one study; scales do not carry over between parts. Substitutions count along the parent as printed.
UniProt Q9H3Y6, sequence (whole entry, looked up): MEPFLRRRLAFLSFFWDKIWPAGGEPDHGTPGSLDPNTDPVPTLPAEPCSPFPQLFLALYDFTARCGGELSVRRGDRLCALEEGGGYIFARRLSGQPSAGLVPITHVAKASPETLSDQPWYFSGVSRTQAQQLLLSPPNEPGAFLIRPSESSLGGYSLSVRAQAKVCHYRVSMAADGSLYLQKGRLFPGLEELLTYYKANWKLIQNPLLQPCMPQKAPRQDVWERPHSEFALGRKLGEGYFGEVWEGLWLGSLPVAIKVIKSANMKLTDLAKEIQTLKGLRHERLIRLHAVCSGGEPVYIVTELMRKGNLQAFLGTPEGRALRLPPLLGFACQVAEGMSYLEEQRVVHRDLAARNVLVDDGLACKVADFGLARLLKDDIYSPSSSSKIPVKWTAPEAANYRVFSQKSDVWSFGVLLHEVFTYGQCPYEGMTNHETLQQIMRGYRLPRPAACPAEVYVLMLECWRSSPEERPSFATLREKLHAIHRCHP

Set 1
Target: Centromere-binding protein 1, full length, N-terminal tag (CBF1, Saccharomyces cerevisiae, UniProt P17106, residues 1-351)
UniProt P17106, sequence (whole entry, looked up): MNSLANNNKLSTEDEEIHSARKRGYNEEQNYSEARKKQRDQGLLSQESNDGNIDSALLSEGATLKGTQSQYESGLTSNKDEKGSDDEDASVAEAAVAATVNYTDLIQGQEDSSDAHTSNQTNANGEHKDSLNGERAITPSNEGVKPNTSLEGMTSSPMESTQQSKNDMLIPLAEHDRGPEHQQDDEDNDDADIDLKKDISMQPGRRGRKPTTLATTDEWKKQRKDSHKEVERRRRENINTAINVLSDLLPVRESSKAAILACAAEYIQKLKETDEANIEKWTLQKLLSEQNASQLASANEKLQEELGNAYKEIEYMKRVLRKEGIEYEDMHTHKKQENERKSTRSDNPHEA
Technique: protein-binding microarray
Form: double-stranded DNA, one strand shown
Matrix: in vitro
Concentration: 0.8 µM
Setting: whole 60-bp probe, no competitor
Reading: higher = stronger binding
Endpoint: fluorescence intensity
Shared flanks, not repeated: … GTCTTGATTCGCTTGACGCTGCTG
TGTACGAAGCTATTGATGATGATTATAGTAGTTAGG: 534 a.u.
GAATATCAAATTGGTCACCTTACTTGGCAAGGCTAG: 628 a.u.
CTAAAATTATTAGTATCCGTGATTTTAGTACAATTC: 584 a.u.
GAAGCTTCCTCTATTGATGTTACACCTGGACACTAG: 521 a.u.
GAAAACTATGGTTGTGACGTAAAAGTGGAGTGCTAG: 610 a.u.
CTATCACTGTGCAATCACCTGATGATGTGGTTTTTC: 1780 a.u.
GAACGACATATCATCCACCAGATTATCACGCTATAG: 597 a.u.
CTATAGATAAATCACCACGAATCATTTGTTCGGTTC: 532 a.u.

Set 2
Target: PABPC1L2, full length, GST fusion (mouse, UniProt A0ABA7IW68)
Technique: RNAcompete
Form: RNA
Matrix: in vitro
Concentration: 20 nM
Setting: 7-mer, probes averaged, single round
Baseline: mean of 7-mers
Reading: higher = stronger binding
Endpoint: 7-mer Z-score
Target sequence (chain): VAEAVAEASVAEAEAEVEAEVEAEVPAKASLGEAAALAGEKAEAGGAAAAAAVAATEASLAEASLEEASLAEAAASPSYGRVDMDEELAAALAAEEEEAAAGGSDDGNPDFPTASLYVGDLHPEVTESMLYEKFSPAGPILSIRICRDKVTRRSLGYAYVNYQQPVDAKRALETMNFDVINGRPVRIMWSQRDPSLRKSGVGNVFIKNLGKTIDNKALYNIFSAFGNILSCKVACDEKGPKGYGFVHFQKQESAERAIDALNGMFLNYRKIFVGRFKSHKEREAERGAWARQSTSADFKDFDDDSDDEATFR
UACUAAG: -0.0808
AGAACUG: -0.0355
CACCUUC: -0.438
AGAAGAG: 0.213
GCCAGGC: -0.233
UGUAUCG: -0.342
UUUCCGC: -0.431
AAAAAAG: 23.8

Set 3
Target: NFE2, bZIP domain (human)
Technique: DHFR protein complementation
Matrix: yeast
Setting: single substitutions, most at no-binding floor
Baseline: wild-type JUN-FOS pair
Reading: higher = stronger binding
Endpoint: binding fitness
Parent: JUN, bZIP domain (human); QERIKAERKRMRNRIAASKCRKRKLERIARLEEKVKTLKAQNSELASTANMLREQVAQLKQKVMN; partner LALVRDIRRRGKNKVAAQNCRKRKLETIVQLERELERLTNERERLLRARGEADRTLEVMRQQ
S47D: -1.45 natural log
S47W: -1.47 natural log
Q55K: -1.46 natural log
E44D: -1.6 natural log
T48D: -1.5 natural log
V56M: -1.12 natural log
K34V: -1.49 natural log
Q41V: -1.39 natural log

Single results of other studies
Cc1cncc2cccc(S(=O)(=O)N3CCCN(C(=O)CN)C[C@@H]3C)c12
remaining activity (Tyrosine-protein kinase Srms (SRMS, Homo sapiens, UniProt Q9H3Y6); enzyme activity, inhibitor; 0.5 µM; baseline: control): 106%

Repeated from above (set 3):
T48D: -1.5 natural log
V56M: -1.12 natural log
K34V: -1.49 natural log
Q41V: -1.39 natural log
